{"data": "Published values pooled from the literature", "note": "A part holds a random share of what one study measured. Positions count from the first letter of the parent shown."}
{"data": "Set 1", "target": "Ras GTPase-activating protein-binding protein 1, full length (G3BP1, Homo sapiens, UniProt Q13283)", "method": "RNA Bind-n-Seq", "molecule type": "RNA", "sample": "in vitro", "concentration": "200 nM", "notes": "whole 134-nt RNA, ends assumed", "together with": "150 mM LiCl", "reference": "input library", "direction": "higher = stronger binding", "library": "7-deaza-guanosine replaces G", "shared flanks, not repeated": "GGGAGUUCUACAGUCCGACGAUC … UGGAAUUCUCGGGUGUCAAGG", "chain of UniProt Q13283 (whole entry, looked up)": "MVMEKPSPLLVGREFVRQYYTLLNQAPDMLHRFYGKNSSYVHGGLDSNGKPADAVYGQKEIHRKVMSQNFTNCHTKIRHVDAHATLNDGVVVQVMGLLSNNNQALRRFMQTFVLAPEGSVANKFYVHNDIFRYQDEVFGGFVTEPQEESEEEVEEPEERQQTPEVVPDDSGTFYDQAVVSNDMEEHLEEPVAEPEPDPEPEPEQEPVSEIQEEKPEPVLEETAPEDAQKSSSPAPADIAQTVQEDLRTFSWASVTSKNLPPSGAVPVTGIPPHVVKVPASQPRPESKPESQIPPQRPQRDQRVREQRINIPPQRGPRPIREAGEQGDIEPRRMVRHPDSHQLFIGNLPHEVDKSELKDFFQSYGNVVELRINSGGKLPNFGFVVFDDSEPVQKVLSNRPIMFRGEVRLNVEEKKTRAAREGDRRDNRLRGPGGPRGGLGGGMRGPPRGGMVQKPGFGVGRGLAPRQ"}
{"Strand": "UGGGAGGUGGAUUUUGUUUAUUUUUUGAGCUCAUUUCCAGGGGUGGGAAUUUUUUUUUAAUAUGUGUCAUGAAUAAAGUUGUUUUUGAAA", "log2 enrichment": 0.325}
{"Strand": "CCUCAAGUCCUGUGCUACACAUCGUAUGUACCGAAUCGGGCGGGCGGGCGGGAAAGUAUUAUGUUACGCCGUUCGGAUCUGCACUUCCAG", "log2 enrichment": -0.151}
{"Strand": "UAACUUUAGAGGAGGAUCUGAUGGAUAUGGCAGUGGACGUGGAUUUGGGGAUGCCUAUAAUGGGUAUGGAGGAGGACCUGGAGGUGGCAA", "log2 enrichment": -0.695}
{"Strand": "UGUGCUACACAUCGUAUGUACCGAAUCGGGGUUUUUUUGGGGUUUUUGGGGAAAAAAAGGGGAAAGUAUUAUGUUACGCCGUUCGGAUCU", "log2 enrichment": 0.5}
{"Strand": "UCCUGUGCUACACAUCGUAUGUACCGAAUCGGGGUUUGGGGAAAAAGGGGAAAAAGGGGAAAGUAUUAUGUUACGCCGUUCGGAUCUGCA", "log2 enrichment": -0.00954}
{"Strand": "CUCAAGUCCUGUGCUACACAUCGUAUGUACCGAAUCGGGCCGGGCCGGGCCGGGAAAGUAUUAUGUUACGCCGUUCGGAUCUGCACUUCC", "log2 enrichment": 0.677}
{"Strand": "UGGGAGGUGGAUUUUGUUUAUUUUUUUAGCUCAUUCCCAGGGGUGGGAAUUUUUUUUUAAUAUGUGUCAUGAAUAAAGUUGUUUUUGAAA", "log2 enrichment": -0.146}
{"Strand": "CAAGUCCUGUGCUACACAUCGUAUGUACCGAAUCGGGAAAGGGUUUUUGGGAGGGAAAGUAUUAUGUUACGCCGUUCGGAUCUGCACUUC", "log2 enrichment": 0.097}
{"Strand": "UGGCCCUGGUGGCAUGCGGGGAGGAAGACGUGGCCUCAUGGAUCGUGGUGGUCCCGGUGGAAUGUUCAGAGGUGGCCGUGGUGGAGACAG", "log2 enrichment": 0.286}
{"Strand": "UAACUUUAGAGGAGGAUCUGAUGGAUAUGGCAGUGGACGUGGAUUUGGGGAUGGCUAUAAUGGGUAUGGAGGAGGACCUGGAGUUGGCAA", "log2 enrichment": 0.214}
{"Strand": "CACAGACAACACGCACCCACACAGAGACAGAGGGAAGGGGUUGGGAUGGGGACAGGGUGCACAGCAGGGCGGGGUAGGACCCCAGCCCCU", "log2 enrichment": 0.823}
{"data": "Set 2", "target": "CCNB1, cyclin fold, Cln2 fusion (human)", "method": "yeast growth competition, sequencing", "sample": "yeast", "notes": "weak parent motif", "reference": "not given", "direction": "higher = stronger binding", "starting sequence": "SCAPER docking peptide (human); SNARRSLNFGGST"}
{"Substitution": "SKARRSLNFGGST [N2K]", "normalised enrichment score": 0.0496}
{"Substitution": "SNARRSLNFGDST [G11D]", "normalised enrichment score": 0.767}
{"Substitution": "SNARRSLNFGGLT [S12L]", "normalised enrichment score": 0.855}
{"Substitution": "SNARRLLNFGGST [S6L]", "normalised enrichment score": 0.801}
{"Substitution": "SNARRILNFGGST [S6I]", "normalised enrichment score": 0.401}
{"Substitution": "SNARRSLNGGGST [F9G]", "normalised enrichment score": -0.424}
{"Substitution": "SNARESLNFGGST [R5E]", "normalised enrichment score": 0.16}
{"Substitution": "SNARRSLNNGGST [F9N]", "normalised enrichment score": -0.104}
{"Substitution": "SNARRSWNFGGST [L7W]", "normalised enrichment score": 0.164}
{"Substitution": "SNARRSLNFGAST [G11A]", "normalised enrichment score": -0.224}
{"Substitution": "SNARRSCNFGGST [L7C]", "normalised enrichment score": 0.0388}
{"Substitution": "SNRRRSLNFGGST [A3R]", "normalised enrichment score": 0.596}
{"Substitution": "SNARRSLNFGTST [G11T]", "normalised enrichment score": 1.2}
{"Substitution": "SNIRRSLNFGGST [A3I]", "normalised enrichment score": 1.14}
{"Substitution": "SLARRSLNFGGST [N2L]", "normalised enrichment score": 0.697}
{"data": "Set 3", "target": "ABI1, truncated, D143A, DHFR fusion (Arabidopsis thaliana, UniProt P49597)", "method": "DHFR PCA, dose-response", "sample": "yeast", "notes": "Hill fit, not affinity, not high confidence", "together with": "(+)-ABA, dose series", "direction": "lower = more sensitive", "starting sequence": "PYL1, truncated, DHFR fusion (Arabidopsis thaliana, UniProt Q8VZS8); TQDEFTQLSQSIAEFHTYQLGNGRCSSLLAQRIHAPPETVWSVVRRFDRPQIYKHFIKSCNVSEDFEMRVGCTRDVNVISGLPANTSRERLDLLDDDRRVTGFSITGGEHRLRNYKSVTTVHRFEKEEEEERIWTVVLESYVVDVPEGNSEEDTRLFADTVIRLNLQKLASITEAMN"}
{"Substitution": "W41R", "ABA EC50 [µM]": 27.1}
{"Substitution": "D153K", "ABA EC50 [µM]": 133}
{"Substitution": "F47S", "ABA EC50 [µM]": 0.846}
{"Substitution": "P50H", "ABA EC50 [µM]": 2.57}
{"Substitution": "V43P", "ABA EC50 [µM]": 465}
{"Substitution": "E89H", "ABA EC50 [µM]": 354}
{"Substitution": "V137E", "ABA EC50 [µM]": 750}
{"Substitution": "K54W", "ABA EC50 [µM]": 27}
{"Substitution": "V121F", "ABA EC50 [µM]": 2070}
{"Substitution": "Y141Q", "ABA EC50 [µM]": 1.14}
{"Substitution": "W41Q", "ABA EC50 [µM]": 7.05}
{"Substitution": "D159V", "ABA EC50 [µM]": 2470}
{"data": "Single results of other studies"}
{"Substance": "PhoQ, residues 284 288 289 292 302 303 TAVSDG", "target": "PhoP, residues 12 14 15 18 19 SPWRL (Escherichia coli, UniProt P23836)", "assay": "Sort-seq, item: YFP reporter", "test system": "E. coli", "setting": "PhoQ-PhoP variant library, together with: 10 µM Mg2+", "how to read": "reference: high Mg2+ state, higher = stronger signaling", "endpoint": "fold induction", "value": 0.879}
